Measurements from different studies.
Values joined by “and” are separate records of one study, mostly repeats; a detail may differ. ± marks the error that the study gave.
prp N63Q: Ribosomal processing cysteine protease Prp (prp, Staphylococcus aureus, UniProt Q2FXS9, N63Q)
HLA class I histocompatibility antigen, A alpha chain allele A*24:02: HLA class I histocompatibility antigen, A alpha chain, allele A*24:02 (Homo sapiens, UniProt P04439)
ADRA2A: Alpha-2A adrenergic receptor (ADRA2A, Homo sapiens, UniProt P08913)
Chain of UniProt P08913 (whole entry, looked up): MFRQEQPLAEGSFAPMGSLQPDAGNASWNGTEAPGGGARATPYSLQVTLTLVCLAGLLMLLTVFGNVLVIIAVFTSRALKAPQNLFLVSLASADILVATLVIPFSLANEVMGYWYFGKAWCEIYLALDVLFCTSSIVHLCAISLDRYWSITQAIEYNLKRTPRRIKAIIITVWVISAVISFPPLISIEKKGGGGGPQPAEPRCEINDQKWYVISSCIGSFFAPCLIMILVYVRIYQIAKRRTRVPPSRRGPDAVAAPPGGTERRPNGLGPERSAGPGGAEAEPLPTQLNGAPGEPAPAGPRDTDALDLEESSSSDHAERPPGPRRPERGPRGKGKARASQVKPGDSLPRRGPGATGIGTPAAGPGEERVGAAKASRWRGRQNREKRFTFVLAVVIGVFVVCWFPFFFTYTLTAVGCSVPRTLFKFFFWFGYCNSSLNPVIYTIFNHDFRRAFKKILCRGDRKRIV
F2: Prothrombin (F2, Homo sapiens, UniProt P00734)
Chain of UniProt O60741 (whole entry, looked up): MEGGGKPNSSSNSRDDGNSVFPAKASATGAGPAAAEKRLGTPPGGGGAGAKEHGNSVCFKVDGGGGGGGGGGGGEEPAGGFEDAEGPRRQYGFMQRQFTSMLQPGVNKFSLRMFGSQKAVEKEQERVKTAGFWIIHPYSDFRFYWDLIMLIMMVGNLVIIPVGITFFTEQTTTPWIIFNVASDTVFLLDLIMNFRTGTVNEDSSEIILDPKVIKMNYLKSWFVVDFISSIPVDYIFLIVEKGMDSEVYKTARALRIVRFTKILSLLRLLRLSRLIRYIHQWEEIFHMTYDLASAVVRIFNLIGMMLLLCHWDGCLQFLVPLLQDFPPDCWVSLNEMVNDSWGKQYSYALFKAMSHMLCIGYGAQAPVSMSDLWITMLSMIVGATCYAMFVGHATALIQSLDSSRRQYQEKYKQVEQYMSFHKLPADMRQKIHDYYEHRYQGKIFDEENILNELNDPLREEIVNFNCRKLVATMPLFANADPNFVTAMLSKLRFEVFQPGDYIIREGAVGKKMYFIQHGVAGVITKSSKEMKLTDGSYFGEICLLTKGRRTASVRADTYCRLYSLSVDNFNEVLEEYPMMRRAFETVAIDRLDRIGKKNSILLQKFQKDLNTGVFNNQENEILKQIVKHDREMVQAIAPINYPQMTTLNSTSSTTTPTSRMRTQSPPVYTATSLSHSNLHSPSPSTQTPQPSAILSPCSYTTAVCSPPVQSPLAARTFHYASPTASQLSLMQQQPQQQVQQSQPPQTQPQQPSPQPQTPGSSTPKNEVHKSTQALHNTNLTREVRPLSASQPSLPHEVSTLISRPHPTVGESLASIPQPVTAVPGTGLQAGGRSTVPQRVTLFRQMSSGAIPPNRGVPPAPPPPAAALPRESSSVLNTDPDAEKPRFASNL
Chain of UniProt P51686 (whole entry, looked up): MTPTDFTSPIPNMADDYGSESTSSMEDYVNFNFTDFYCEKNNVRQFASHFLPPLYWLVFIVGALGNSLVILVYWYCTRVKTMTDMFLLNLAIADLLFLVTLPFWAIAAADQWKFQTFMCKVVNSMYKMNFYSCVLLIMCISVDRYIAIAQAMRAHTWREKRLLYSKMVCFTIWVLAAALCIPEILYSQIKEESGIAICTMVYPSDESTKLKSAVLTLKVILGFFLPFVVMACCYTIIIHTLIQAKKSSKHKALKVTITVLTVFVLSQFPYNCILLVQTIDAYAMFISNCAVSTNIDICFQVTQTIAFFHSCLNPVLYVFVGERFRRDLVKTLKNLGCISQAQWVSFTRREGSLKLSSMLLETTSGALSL
Chain of UniProt P37288 (whole entry, looked up): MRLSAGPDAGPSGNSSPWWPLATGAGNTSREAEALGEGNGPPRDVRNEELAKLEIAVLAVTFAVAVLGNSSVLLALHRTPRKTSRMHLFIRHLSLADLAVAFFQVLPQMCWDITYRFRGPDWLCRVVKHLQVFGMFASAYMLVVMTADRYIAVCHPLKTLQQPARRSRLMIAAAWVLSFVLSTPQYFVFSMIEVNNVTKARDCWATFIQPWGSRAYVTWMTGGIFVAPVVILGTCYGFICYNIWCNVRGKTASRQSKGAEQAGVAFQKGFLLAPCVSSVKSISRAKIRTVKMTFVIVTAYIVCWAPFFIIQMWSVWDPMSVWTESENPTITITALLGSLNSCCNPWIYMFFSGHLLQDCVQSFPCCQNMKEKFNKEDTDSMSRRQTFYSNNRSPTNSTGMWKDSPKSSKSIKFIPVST
Chain of UniProt P81947 (whole entry, looked up): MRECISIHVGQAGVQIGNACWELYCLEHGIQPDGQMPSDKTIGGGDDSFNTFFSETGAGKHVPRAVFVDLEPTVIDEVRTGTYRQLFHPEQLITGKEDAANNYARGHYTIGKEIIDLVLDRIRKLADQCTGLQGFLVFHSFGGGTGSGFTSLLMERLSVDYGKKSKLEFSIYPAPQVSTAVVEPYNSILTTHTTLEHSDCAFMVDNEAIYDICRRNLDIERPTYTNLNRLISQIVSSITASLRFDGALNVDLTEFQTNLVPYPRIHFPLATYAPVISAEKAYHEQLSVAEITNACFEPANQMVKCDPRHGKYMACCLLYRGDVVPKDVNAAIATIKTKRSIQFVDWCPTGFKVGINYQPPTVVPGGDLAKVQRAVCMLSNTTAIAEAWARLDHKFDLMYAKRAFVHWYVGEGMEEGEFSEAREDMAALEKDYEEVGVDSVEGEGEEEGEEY
Chain of UniProt P41146 (whole entry, looked up): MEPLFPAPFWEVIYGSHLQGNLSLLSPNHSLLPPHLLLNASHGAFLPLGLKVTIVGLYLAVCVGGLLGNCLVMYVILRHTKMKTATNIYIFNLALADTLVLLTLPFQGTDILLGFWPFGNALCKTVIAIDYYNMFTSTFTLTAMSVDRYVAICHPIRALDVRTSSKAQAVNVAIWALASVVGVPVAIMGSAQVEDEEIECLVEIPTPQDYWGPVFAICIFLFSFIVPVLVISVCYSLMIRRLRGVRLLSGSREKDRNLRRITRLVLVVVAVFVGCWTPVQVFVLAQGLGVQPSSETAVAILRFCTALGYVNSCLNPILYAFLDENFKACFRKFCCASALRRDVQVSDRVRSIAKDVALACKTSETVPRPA
Chain of UniProt P00811 (whole entry, looked up): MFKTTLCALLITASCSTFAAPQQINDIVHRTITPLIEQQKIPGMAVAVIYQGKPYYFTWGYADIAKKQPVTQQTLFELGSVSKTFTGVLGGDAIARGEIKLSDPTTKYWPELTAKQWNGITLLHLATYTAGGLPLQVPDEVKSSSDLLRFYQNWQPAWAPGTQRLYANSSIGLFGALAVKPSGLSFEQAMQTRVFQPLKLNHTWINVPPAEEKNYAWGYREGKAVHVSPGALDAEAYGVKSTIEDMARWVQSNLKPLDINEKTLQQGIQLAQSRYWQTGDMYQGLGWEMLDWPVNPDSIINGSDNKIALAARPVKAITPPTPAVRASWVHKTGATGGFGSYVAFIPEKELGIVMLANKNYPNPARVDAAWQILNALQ
Chain of UniProt Q0VDG4 (whole entry, looked up): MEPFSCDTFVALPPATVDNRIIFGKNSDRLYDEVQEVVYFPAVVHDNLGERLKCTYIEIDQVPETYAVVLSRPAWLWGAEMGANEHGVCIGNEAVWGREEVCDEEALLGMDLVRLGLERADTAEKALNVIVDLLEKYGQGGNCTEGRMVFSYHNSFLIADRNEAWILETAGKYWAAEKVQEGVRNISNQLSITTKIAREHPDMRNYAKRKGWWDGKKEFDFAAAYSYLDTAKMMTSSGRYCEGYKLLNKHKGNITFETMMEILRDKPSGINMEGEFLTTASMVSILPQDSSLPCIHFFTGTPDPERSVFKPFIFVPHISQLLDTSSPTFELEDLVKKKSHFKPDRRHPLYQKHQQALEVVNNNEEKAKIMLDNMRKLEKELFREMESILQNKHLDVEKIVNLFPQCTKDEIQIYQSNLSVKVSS
Chain of UniProt P43116 (whole entry, looked up): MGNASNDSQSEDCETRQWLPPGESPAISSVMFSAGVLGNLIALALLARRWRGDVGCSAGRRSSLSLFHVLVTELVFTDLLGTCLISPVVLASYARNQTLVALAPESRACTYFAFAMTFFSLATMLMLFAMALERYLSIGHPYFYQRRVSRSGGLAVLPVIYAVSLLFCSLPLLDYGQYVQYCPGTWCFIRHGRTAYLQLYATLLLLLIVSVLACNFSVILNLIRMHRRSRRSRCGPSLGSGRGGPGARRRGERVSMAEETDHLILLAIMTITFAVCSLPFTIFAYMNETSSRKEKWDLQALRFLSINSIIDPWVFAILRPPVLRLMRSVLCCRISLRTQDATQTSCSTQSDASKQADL
Chain of UniProt Q6B856 (whole entry, looked up): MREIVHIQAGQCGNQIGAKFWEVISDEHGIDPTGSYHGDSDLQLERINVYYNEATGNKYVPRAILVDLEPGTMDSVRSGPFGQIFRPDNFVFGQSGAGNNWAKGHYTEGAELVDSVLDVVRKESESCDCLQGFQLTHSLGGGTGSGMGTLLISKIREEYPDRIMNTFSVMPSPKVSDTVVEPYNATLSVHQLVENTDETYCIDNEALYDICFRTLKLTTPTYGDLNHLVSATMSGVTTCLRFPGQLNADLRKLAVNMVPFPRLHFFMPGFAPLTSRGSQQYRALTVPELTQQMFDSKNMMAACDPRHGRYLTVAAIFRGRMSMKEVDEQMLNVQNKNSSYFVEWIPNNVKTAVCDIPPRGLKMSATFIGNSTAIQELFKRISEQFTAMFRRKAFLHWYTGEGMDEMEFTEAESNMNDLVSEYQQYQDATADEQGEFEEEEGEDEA
Chain of UniProt O00270 (whole entry, looked up): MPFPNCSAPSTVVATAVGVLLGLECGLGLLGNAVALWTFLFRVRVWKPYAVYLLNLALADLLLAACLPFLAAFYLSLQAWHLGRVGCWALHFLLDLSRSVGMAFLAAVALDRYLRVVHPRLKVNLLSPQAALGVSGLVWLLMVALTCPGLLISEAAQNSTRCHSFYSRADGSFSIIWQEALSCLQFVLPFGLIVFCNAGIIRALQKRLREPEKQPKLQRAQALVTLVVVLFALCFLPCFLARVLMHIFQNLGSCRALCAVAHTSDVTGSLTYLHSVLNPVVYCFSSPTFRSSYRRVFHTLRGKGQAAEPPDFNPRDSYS

SMILES = C[C@H](NC(=O)[C@@H](O)c1cc(F)cc(F)c1)C(=O)N[C@@H]1C(=O)N(C)c2ccccc2-c2ccccc21; tested on = prp N63Q; assay = enzyme activity; setting = 10 µM, 21.4 nM enzyme dimer, with: 0.5 µM FITC-labelled peptide substrate; measurement = inhibition; result = 28.2 ± 4.8%
SMILES = CC(C(O)c1ccc(O)cc1)N1CCC(Cc2ccccc2)CC1 (stereo not drawn); tested on = Glutamate receptor ionotropic, NMDA 2A, with GluN1 (Grin2a, Rattus norvegicus, UniProt Q00959); test system = HEK293; setting = 120 µM; measurement = inhibition; result = ~56%
SMILES = O=S(=O)(CC1CS1)c1ccc(Oc2ccccc2)cc1 (stereo not drawn); tested on = prp N63Q; assay = enzyme activity; setting = 10 µM, 21.4 nM enzyme dimer, with: 0.5 µM FITC-labelled peptide substrate; measurement = inhibition; result = 45.6 ± 5.4%
SMILES = CSCC[C@H](NC(=O)[C@@H](N)CCCNC(=N)N)C(=O)N[C@@H](Cc1ccccc1)C(=O)NCC(=O)N1CCC[C@H]1C(=O)N[C@H](C(=O)N[C@@H](CCC(N)=O)C(=O)N[C@H](C(=O)N[C@@H](Cc1ccc(O)cc1)C(=O)O)[C@@H](C)O)C(C)C; tested on = HLA class I histocompatibility antigen, A alpha chain allele A*24:02; assay = binding; measurement = IC50; result = 3.87 µM
SMILES = O=C(O)C[C@H](NC(=O)[C@H](CC(=O)O)NC(=O)[C@H](CC(=O)O)NC(=O)[C@H](CC(=O)O)NC(=O)[C@H](CC(=O)O)NC(=O)[C@H](CC(=O)O)NC(=O)[C@H](CC(=O)O)NC(=O)[C@H](CC(=O)O)NC(=O)[C@H](CC(=O)O)NC(=O)[C@H](CC(=O)O)NC(=O)[C@H](CC(=O)O)NC(=O)[C@H](CCCCNC(=O)c1ccc(C(=O)NCCOCCOB2BBBBBB3BBBB3B2)cc1)NC(=O)CN1CCN(CC(=O)O)CCN(CC(=O)O)CCN(CC(=O)O)CC1)C(=O)O [gallium-67 labelled]; test system = ddY male mice, lung; setting = intravenous, 37 kBq, 1 h; measurement = tissue uptake; result = 0.48 %ID/g
SMILES = O=C(Nc1cccnn1)N1CCC(=Cc2cccc(Oc3ccc(C(F)(F)F)cn3)c2)CC1; tested on = PTGER2 (Homo sapiens, UniProt P43116); assay = radioligand binding, inhibitor; setting = 10 µM, human, with: [3H]prostaglandin E2; measurement = inhibition; result = 19%
SMILES = CNCCCC12CCC(c3ccccc31)c1ccccc12; tested on = Potassium/sodium hyperpolarization-activated cyclic nucleotide-gated channel 1 (Homo sapiens, UniProt O60741); assay = ion current; setting = 30 µM; measurement = inhibition; result = 29.7%
SMILES = CCCC[C@@H](NC(=O)[C@@H](N)Cc1c(C)cc(O)cc1C)C(=O)NCC(=O)N[C@@H](Cc1ccc(F)cc1)C(=O)N(C)CCC[C@@]1(c2ccc(F)cc2)OCc2cc(C#N)ccc21; tested on = ADRA2A; setting = 10 µM; measurement = inhibition; result = < 50%
SMILES = N=C(N)Nc1ccc2c(c1)B(O)OC2; tested on = F2; assay = enzyme activity; setting = 50 µM, with: substrate 50 µM; measurement = inhibition; result = ≤ 10%
SMILES = CNC(=O)c1c(N(C)N=O)ncn1C; tested on = Escherichia coli; assay = mutagenicity, Ames plate incorporation; test system = WP2 uvrA pKM101; setting = 1500 µg/plate, without S9, methanol; measurement = revertant colonies per plate; result = 129 ± 15
SMILES = O=C(NCc1ccc(B(O)O)cc1)c1cccc(OCc2ccccc2)c1; tested on = F2; assay = enzyme activity; setting = 50 µM, with: substrate 50 µM; measurement = inhibition; result = ≤ 10%
SMILES = Cc1cnc(C(=O)N[C@H]2CCCCC/C=C\[C@@H]3C[C@@]3(C(=O)NS(=O)(=O)C3CC3)NC(=O)[C@@H]3C[C@@H](Oc4nc5ccccc5c5ccccc45)CN3C2=O)cn1; tested on = prp N63Q; assay = enzyme activity, inhibitor; setting = 10 µM, prp 21.4 nM, with: FITC peptide substrate 0.5 µM; measurement = inhibition; result = 35.8 ± 3.9%
SMILES = COCc1c(-c2cc3cc(C)cc(OC)c3s2)c2c(N)ncnn2c1CN1CCNC(=O)C1; tested on = GABA transporter; assay = radioligand binding; setting = 10 µM; measurement = inhibition; result = 28%
SMILES = CN(C(=O)n1cnc(-c2ccc[n+]([O-])c2)c1)C1CCCCC1; tested on = muscarinic receptor, rat; assay = binding; setting = 10 µM, with: [3H]oxotremorine M; measurement = inhibition; result = -7%
SMILES = O=c1ccc2ccccc2o1; tested on = AVPR1A (Homo sapiens, UniProt P37288); assay = agonist radioligand binding; setting = 10 µM, SafetyScreen44; measurement = inhibition; result = -11.4%
SMILES = CC(C)CC(=O)OC[C@H]1O[C@@](C#N)(c2ccc3c(N)ncnn23)[C@H](O)[C@@H]1O; tested on = ABCB1 (Homo sapiens, UniProt P08183); test system = Caco-2 monolayer; setting = 0.9 µM, 2 h, apical to basolateral, with: zosuquidar 25 µM; measurement = recovery; result = < 40%
SMILES = COc1ccc(Cl)cc1NC(=O)COC(=O)C(CC(C)C)N1C(=O)C2CC=CCC2C1=O (stereo not drawn); tested on = Beta-lactamase (ampC, Escherichia coli K-12, UniProt P00811); assay = enzyme activity, inhibitor; setting = 10 µM, with: CENTA substrate; measurement = inhibition; result = 5%
SMILES = CC[C@H](C)[C@H](NC(=O)[C@@H](NC(=O)[C@H](N)Cc1ccccc1)C(C)C)C(=O)N[C@@H](C)C(N)=O; tested on = APP (Homo sapiens, UniProt P05067); assay = amyloid-beta aggregation, thioflavin T fluorescence; setting = 2.0 µM, 120 h, with: 2 µM amyloid-beta; measurement = inhibition; result = 82.2%
SMILES = O=C(Nc1cccc(C(=O)Nc2ccc3c(c2)B(O)OC3)c1)c1ccccc1; tested on = F2; assay = enzyme activity; setting = 50 µM, with: substrate 50 µM; measurement = inhibition; result = ≤ 10%
SMILES = COC(=O)N[C@H](C(=O)N1CCC[C@H]1C(=O)Nc1ccc([C@@H]2CC[C@@H](c3ccc(NC(=O)[C@@H]4CCCN4C(=O)[C@@H](NC(=O)OC)C(C)C)cc3)N2c2ccc(C(C)(C)C)cc2)cc1)C(C)C; tested on = prp N63Q; assay = enzyme activity, inhibitor; setting = 10 µM, prp 21.4 nM, with: FITC peptide substrate 0.5 µM; measurement = inhibition; result = 17.9 ± 8%
SMILES = CSCC[C@H](NC(=O)[C@H](C)N)C(=O)N[C@@H](Cc1ccc(O)cc1)C(=O)NCC(=O)N[C@@H](CCCNC(=N)N)C(=O)N[C@@H](CO)C(=O)N[C@@H](CC(C)C)C(=O)N[C@@H](CCC(N)=O)C(=O)N[C@@H](Cc1ccccc1)C(=O)O; tested on = HLA class I histocompatibility antigen, A alpha chain allele A*24:02; assay = binding; measurement = IC50; result = 5.58 µM
SMILES = Cn1c(=O)cc(N2CCC[C@@H](N)C2)n(Cc2ccccc2C#N)c1=O; tested on = prp N63Q; assay = enzyme activity, inhibitor; setting = 10 µM, prp 21.4 nM, with: FITC peptide substrate 0.5 µM; measurement = inhibition; result = 38.4 ± 25.5%
SMILES = CN(c1ccc2c(c1)B(O)OC2)S(=O)(=O)c1ccc(Cl)cc1; tested on = F2; assay = enzyme activity; setting = 50 µM, with: substrate 50 µM; measurement = inhibition; result = ≤ 10%
SMILES = CN(CCN1CCC(OC(=O)Nc2ccccc2-c2ccccc2)CC1)C(=O)c1ccc(CN2CCC(C(N)=O)CC2)cc1; tested on = GABA receptor non-selective; assay = radioligand binding; setting = 1 µM, with: [3H]GABA 10 nM; measurement = inhibition; result = -5%
SMILES = CO[C@H]1C[C@@H]2CC[C@@H](C)[C@@](O)(O2)C(=O)C(=O)N2CCCC[C@H]2C(=O)O[C@H]([C@H](C)C[C@@H]2CC[C@@H](OC(=O)NCCOCCOCCOCCOCCOCCOCCOCCOCCC(=O)N3CCc4cc(Cn5nc(-c6ccc7oc(N)nc7c6)c6c(N)ncnc65)ccc4C3)[C@H](OC)C2)C[C@@H](O)[C@H](C)/C=C(\C)[C@@H](O)[C@@H](OC)C(=O)[C@H](C)C[C@H](C)/C=C/C=C/C=C/1C; assay = phase 1 dose escalation, refers to: rash; test system = advanced solid tumour patients; setting = intravenous, 16 mg weekly, grade ≥3; measurement = TRAE incidence; result = 0%
SMILES = O=C(Nc1ccc2c(c1)B(O)OC2)c1cccc(OCc2ccccc2)n1; tested on = F2; assay = enzyme activity; setting = 50 µM, with: substrate 50 µM; measurement = inhibition; result = ≤ 10%
SMILES = FC(F)(F)c1cccc(Nc2nc(NCCOc3ccccc3)nc3[nH]cnc23)c1; tested on = PRKACA (Homo sapiens, UniProt P17612); assay = enzyme activity, inhibitor, Thermo Fisher kinase screening; setting = 5 µM; measurement = inhibition; result = 6% and 3%
SMILES = COc1cc(Nc2ncc(F)c(Nc3ccc4c(n3)NC(=O)C(C)(C)O4)n2)cc(OC)c1OC; tested on = TRPM6 (Homo sapiens, UniProt Q9BX84); assay = KINOMEscan; setting = 10 µM; measurement = inhibition; result = 0%
SMILES = Oc1ccc2c3c1O[C@H]1[C@@H](O)CC[C@@]4(O)[C@@H](C2)N(CC2CCC2)CC[C@]314; tested on = 12-(S)-hydroxy-5,8,10,14-eicosatetraenoic acid receptor (GPR31, Homo sapiens, UniProt O00270); assay = β-arrestin recruitment, TANGO luminescence, refers to: GPR31; setting = concentration not given; scale = relative to: basal luminescence; measurement = log2 fold change; result = -0.033
SMILES = CC(=O)NC[C@H]1[C@H](O)[C@H](O)[C@@H]2[C@H](O)C[C@@H](CO)N21; tested on = β-N-acetylglucosaminidase; assay = enzyme activity, inhibitor, colorimetric; test system = Canavalia ensiformis; setting = 1.29 nM, with: p-nitrophenyl GlcNAc substrate; measurement = inhibition; result = 65% and 68.9%
SMILES = COc1cc2c(Oc3ccc4[nH]c(C)cc4c3F)ccnc2cc1OCC1(N)CC1; test system = paediatric recurrent refractory sarcoma; setting = 8 mg/kg; measurement = grade 1 or 2 Myalgia; result = 13.3%
SMILES = CCc1ccc(-c2ccc3c(C(=O)c4cc(OC)c(OC)c(OC)c4)c[nH]c3c2)cc1; tested on = Tubulin alpha-1B chain/TUBB2B (Bos taurus, UniProt P81947+Q6B856); assay = tubulin polymerization, turbidimetry; setting = concentration not given; measurement = inhibition; result = inactive
SMILES = CN1CCN(c2cc(-c3ccncc3)c(-c3ccc4ccccc4c3)nn2)CC1; tested on = CCR9 (Homo sapiens, UniProt P51686); assay = antagonist, FLIPR; setting = 10 µM; measurement = inhibition; result = 6.1%
SMILES = COc1ccc(N2C(=O)N(c3c(C)cccc3Cl)Cc3cnc(Nc4ccc(C5CCN(C)CC5)cc4OC)nc32)nc1; tested on = NUAK1 (Homo sapiens, UniProt O60285); assay = kinase activity, inhibitor; setting = 0.5 µM, ARK5; measurement = inhibition; result = -15%
SMILES = CC(C)N1CCC[C@H]1CNC(=O)c1cn(C2CCCC2)c(=O)c2c1c1ccccc1n2C; tested on = kainate receptor, rat; assay = radioligand binding; setting = 10 µM; measurement = inhibition; result = -6%
SMILES = O=C(Nc1cnccc1Cl)N1CCN(Cc2ccc3c(c2)OC(F)(F)O3)CC1; tested on = Nociceptin receptor (OPRL1, Homo sapiens, UniProt P41146); assay = radioligand binding, inhibitor; setting = 50 µM, human, with: [3H]nociceptin; measurement = inhibition; result = 2%
SMILES = CC(C)(F)C[C@H](N[C@@H](c1ccc(-c2ccc(S(C)(=O)=O)cc2)cc1)C(F)(F)F)C(=O)NC1(C#N)CC1; tested on = prp N63Q; assay = enzyme activity, inhibitor; setting = 10 µM, prp 21.4 nM, with: FITC peptide substrate 0.5 µM; measurement = inhibition; result = 49.1 ± 26.2%
SMILES = O=C1C2CC=CCC2C(=O)N1SC(Cl)(Cl)Cl (stereo not drawn); tested on = Luciferin 4-monooxygenase (Photinus pyralis, UniProt P08659); assay = luciferase luminescence, inhibitor; test system = cell-free; setting = 50 µM, counter-screen; measurement = inhibition; result = 25.8%
SMILES = C=CCc1cccc(/C=N/NC(=O)CN2CCN(Cc3ccccc3)CC2)c1O; tested on = prp N63Q; assay = enzyme activity; setting = 10 µM, 21.4 nM enzyme dimer, with: 0.5 µM FITC-labelled peptide substrate; measurement = inhibition; result = -40.4 ± 21.4%
SMILES = NNCc1c[nH]c2ccccc12; tested on = Secernin-3 (Homo sapiens, UniProt Q0VDG4); assay = probe labelling, inhibitor, competitive ABPP; test system = HEK-293T cell lysate; setting = concentration not given; measurement = inhibition; result = no inhibition
SMILES = Cc1c(O)cccc1C(=O)N[C@@H](CSc1ccccc1)[C@H](O)CN1C[C@H]2CCCC[C@H]2C[C@H]1C(=O)NC(C)(C)C; tested on = prp N63Q; assay = enzyme activity, inhibitor; setting = 10 µM, prp 21.4 nM, with: FITC peptide substrate 0.5 µM; measurement = inhibition; result = 24.2 ± 7.1%
SMILES = Cn1cccc1-c1cccnc1; tested on = ADRA2A; assay = binding; setting = 50 µM; measurement = inhibition; result = 5.73%
